Experimental data of several laboratories.
Every numbered part comes from another study and shows a few of its results, in no order.
Chain of UniProt Q9H832 (whole entry, looked up): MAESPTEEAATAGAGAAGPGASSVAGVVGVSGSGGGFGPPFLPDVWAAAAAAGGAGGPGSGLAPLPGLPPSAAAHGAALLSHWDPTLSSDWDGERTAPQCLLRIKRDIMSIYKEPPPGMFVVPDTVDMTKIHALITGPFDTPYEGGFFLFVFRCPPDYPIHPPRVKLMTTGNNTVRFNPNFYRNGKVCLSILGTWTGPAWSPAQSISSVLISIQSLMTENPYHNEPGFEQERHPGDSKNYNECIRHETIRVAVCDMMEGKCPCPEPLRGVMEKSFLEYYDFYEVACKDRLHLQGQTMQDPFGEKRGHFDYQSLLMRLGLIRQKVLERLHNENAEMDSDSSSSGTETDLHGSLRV
Chain of UniProt P68036 (whole entry, looked up): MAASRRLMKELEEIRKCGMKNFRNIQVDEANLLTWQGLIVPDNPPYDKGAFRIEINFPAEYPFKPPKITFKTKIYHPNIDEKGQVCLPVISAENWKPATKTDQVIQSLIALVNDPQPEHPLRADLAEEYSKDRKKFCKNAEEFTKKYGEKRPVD
Chain of UniProt Q9C0C9 (whole entry, looked up): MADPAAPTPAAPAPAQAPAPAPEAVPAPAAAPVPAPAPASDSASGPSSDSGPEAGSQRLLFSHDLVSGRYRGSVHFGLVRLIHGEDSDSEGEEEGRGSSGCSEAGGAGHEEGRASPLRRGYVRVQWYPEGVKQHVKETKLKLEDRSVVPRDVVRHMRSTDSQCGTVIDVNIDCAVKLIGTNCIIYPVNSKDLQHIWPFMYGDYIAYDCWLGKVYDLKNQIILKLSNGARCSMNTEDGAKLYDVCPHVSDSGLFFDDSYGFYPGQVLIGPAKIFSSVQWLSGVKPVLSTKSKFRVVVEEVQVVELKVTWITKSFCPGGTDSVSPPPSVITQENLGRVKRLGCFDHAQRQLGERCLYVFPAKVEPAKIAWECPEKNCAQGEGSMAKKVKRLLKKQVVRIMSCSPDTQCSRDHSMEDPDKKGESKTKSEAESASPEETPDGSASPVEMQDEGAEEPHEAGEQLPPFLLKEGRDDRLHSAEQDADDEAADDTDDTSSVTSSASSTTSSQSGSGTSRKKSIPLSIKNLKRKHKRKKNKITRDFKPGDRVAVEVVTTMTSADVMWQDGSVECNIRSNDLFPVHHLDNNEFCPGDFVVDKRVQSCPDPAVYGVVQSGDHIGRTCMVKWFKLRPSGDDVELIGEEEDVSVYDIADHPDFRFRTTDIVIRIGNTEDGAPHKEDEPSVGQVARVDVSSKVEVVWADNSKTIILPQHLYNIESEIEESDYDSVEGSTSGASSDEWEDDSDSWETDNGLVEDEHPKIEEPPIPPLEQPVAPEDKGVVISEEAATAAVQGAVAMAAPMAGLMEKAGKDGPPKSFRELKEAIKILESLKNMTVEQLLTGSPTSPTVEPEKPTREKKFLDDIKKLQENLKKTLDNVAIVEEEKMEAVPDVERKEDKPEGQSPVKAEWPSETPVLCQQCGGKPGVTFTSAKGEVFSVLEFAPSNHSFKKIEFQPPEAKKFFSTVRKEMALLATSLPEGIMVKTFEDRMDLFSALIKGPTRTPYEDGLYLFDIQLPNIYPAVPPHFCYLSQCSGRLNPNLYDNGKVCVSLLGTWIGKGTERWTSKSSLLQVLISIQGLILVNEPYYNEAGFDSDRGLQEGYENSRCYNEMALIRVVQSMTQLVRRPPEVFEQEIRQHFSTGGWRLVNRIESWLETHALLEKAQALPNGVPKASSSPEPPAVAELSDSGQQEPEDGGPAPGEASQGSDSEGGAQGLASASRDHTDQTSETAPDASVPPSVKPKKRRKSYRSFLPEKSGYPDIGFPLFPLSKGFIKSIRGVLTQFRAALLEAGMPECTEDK
Chain of UniProt O00762 (whole entry, looked up): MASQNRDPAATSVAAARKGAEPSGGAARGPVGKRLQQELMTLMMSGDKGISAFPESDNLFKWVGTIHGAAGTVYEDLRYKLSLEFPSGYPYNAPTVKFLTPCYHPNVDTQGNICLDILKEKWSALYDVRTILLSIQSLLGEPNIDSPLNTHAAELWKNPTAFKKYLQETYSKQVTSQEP
Chain of UniProt Q8N2K1 (whole entry, looked up): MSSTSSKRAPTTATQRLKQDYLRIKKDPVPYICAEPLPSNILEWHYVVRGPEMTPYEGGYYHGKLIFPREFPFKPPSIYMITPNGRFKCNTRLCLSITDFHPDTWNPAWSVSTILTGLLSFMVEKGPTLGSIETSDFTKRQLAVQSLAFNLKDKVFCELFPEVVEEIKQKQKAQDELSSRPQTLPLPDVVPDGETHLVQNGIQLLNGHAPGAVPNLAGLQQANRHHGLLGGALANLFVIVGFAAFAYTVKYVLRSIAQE
Chain of UniProt P63146 (whole entry, looked up): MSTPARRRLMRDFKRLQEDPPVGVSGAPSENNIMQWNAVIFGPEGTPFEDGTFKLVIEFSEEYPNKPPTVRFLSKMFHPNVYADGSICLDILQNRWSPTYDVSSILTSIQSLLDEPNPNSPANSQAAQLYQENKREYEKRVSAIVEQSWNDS
Chain of UniProt Q9NPD8 (whole entry, looked up): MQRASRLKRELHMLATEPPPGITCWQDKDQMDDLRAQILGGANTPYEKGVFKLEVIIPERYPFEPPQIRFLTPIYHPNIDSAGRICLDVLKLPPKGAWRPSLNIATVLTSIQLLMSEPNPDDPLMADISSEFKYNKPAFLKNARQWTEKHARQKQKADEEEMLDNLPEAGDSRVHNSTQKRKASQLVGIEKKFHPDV
Chain of UniProt P61081 (whole entry, looked up): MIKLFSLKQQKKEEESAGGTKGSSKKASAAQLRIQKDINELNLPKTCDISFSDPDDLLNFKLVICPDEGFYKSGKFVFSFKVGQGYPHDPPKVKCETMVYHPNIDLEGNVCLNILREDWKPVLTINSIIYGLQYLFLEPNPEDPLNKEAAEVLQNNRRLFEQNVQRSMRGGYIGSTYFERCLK

Sample 1 — method: aptamer microarray, sandwich; molecule type: DNA with 2'F-ANA; medium: in vitro; concentration: 200 nM; together with: Cy3 exosite-II aptamer, 400 nM; direction: higher = stronger binding; sequence: GGTTGGTGTGGTTGG
Target: Prothrombin, mature alpha-thrombin (F2, Homo sapiens, UniProt P00734)
Notes: whole 15-mer aptamer, many near background
Modification	mean fluorescence intensity [a.u.]
2'F-ANA at 3 7 9 10 11 15	495
2'F-ANA at 2 4 8 10 11 12 13 14 15	57
2'F-ANA at 4 9 10 14	73.7
2'F-ANA at 1 5 9 10 12 14	67.6
2'F-ANA at 1 2 5 6 8 10 11 12 13 14 15	54.4
2'F-ANA at 1 2 3 4 7 11 13 14	62.2
2'F-ANA at 2 3 4 6 7 8 10 12	294
2'F-ANA at 2 4 7 11 12 13 14 15	111
2'F-ANA at 1 5 6 8 9 13 15	50.8
2'F-ANA at 1 2 4 5 7 8 9 10 13 14 15	43.2
2'F-ANA at 2 3 4 5 6 10 11 12 13 14	146
2'F-ANA at 1 3 5 8 9 14	45.6
2'F-ANA at 6 7 8 12 15	810
2'F-ANA at 1 2 3 4 7 8 9 15	206
2'F-ANA at 5 6 7 10 11 12 13	48.9
2'F-ANA at 4 6 7 8 9 15	264
2'F-ANA at 3 4 6 7 8 11 12 13 14	295
2'F-ANA at 2 4 5 6 8 10 11 12 13 15	56.9
2'F-ANA at 2 5 7 10 13 14	52.4
2'F-ANA at 2 4 8 9 10 11 12 14 15	59.7
2'F-ANA at 1 4 8 10 11 12 14	48.8
2'F-ANA at 2 8 11 12 13 15	519
2'F-ANA at 1 2 5 8 9 12	112
2'F-ANA at 1 2 4 5 6 7 8 9 14	48.4
2'F-ANA at 4 7 8 9 12 13	469

Sample 2 — method: universal PBM; molecule type: double-stranded DNA, one strand shown; medium: in vitro; concentration: 600 nM; direction: higher = stronger binding
Target: Sal-like protein 4, full length isoform A (SALL4, Homo sapiens, UniProt Q9UJQ4, residues 1-1053)
Chain of UniProt Q9UJQ4 (whole entry, looked up): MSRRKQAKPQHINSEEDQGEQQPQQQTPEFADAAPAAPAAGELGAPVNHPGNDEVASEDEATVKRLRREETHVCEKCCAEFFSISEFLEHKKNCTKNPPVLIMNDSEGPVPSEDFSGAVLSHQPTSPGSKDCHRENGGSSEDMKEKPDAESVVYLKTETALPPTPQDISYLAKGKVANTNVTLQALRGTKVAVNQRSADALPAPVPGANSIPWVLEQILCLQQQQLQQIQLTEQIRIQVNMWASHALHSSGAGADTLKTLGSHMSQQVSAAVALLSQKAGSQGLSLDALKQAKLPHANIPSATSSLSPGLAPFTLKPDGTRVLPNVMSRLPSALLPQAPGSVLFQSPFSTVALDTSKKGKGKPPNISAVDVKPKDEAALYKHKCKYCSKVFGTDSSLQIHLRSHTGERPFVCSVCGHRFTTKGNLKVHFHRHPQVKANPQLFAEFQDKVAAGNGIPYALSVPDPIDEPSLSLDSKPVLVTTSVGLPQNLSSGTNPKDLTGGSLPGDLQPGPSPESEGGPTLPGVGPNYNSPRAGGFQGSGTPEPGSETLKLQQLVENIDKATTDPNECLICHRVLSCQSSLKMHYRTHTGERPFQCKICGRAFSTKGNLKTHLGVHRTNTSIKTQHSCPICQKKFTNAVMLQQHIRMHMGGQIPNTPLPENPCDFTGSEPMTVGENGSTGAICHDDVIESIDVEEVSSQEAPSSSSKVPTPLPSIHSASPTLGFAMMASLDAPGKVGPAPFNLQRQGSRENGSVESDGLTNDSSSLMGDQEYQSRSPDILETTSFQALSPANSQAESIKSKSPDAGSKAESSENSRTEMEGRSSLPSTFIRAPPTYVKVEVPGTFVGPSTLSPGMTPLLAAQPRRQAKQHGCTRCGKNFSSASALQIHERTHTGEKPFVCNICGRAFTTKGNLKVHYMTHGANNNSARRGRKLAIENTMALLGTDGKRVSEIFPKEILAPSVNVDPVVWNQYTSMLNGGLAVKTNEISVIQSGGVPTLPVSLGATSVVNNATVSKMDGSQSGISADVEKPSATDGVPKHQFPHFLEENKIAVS
Notes: 8-mer, flanks averaged, mean of replicates
Sequence	E-score
CCCACCAA	-0.0938
AAGAGGAC	-0.172
GCATGTAC	-0.056
ACCTAATA	0.286
AGGCGCGG	-0.445
AATAAGTG	0.261
ACTATACC	0.17
GACCCCAA	-0.187
AATTTTCA	0.345
ACGGGGTA	-0.268
AAGGCGTC	-0.145
CGATGTTC	-0.202
GGATACTA	0.016
ACACGGCA	-0.189
GTAATGCA	0.104
CGGTTTAA	-0.0141
CAGTACTC	0.0283
AATTTTCC	0.203

Sample 3 — method: RNA Bind-n-Seq; molecule type: RNA; medium: in vitro; concentration: 20 nM; notes: 6-mer, flanks averaged, single round; together with: 150 mM KCl; reference: input library; direction: higher = stronger binding
Target: TAR DNA-binding protein 43, full length, His tag (TARDBP, Homo sapiens, UniProt Q13148, residues 1-414)
Sequence	6-mer enrichment (R)
GCUAAG	0.967
AUUAGC	0.616
CUUAGA	0.61
UGCAGA	0.857
CCCGCA	0.654
CCAAUG	0.734
UGUAUU	0.684
CUAAUG	0.676
GAACAG	1.03
GUAGGU	1.29
CGUGCC	0.808
AUAACG	0.715
UCCUUA	0.576
GAGUAA	0.899
CUUAAA	0.586
AAAUGA	0.688
AGACGU	0.814
ACAGUC	0.602
AUCUAC	0.541
UUGAUC	0.585

Sample 4 — method: RNA Bind-n-Seq; molecule type: RNA; medium: in vitro; concentration: not given; reference: input RNA pool; direction: higher = stronger binding
Target: RING finger protein unkempt homolog, zinc fingers 1-6, GST-SBP tag (UNK, Homo sapiens, UniProt Q9C0B0, residues 30-357)
Chain of UniProt Q9C0B0 (30-357, looked up): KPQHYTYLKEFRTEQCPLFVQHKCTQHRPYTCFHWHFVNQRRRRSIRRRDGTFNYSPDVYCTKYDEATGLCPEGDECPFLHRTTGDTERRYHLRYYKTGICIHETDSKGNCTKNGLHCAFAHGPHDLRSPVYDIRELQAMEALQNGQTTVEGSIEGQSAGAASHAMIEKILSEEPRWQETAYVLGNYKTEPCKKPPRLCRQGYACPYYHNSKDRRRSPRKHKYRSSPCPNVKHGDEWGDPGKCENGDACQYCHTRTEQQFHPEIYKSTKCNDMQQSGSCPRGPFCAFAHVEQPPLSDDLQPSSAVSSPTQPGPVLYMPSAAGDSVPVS
Notes: RNA with constant flanks, human and mouse sites, ends assumed
All sequences stand within: GGGAGUUCUACAGUCCGACGAUC … CAACAGAGGAUUGAGCAUCA
Sequence	bound/input enrichment [ratio]
UGCAAGCUGCCAAGACUGUCUCUGAACGGGGUCCGGUUUAAGCGGAUAUCGGGGACAUCCAUAGCCUUCAAAAAUAUUGCUUCCAAAAUUGCCAAUGAGCUAAAGCUGUAACCCAGUGAU	0.794
AUGGACCUGGCAGCCAAUGAGAAGGCCGUUCAUGCAGACUUUUUUAAUGAUUUUGAAGACCUUUUUGAUGAUGAUGAUGUCCAGUGAGGCCGCCCGGUCCUAUGUGCUCCAUGUCUGUGA	0.155
GAAGAAAAUGGCGAGGACAGAGAUACAGCAAGUGAAAAAGAAUUAAAUGGAGAUUCUGAUUUAGAUCCUGAAAAUGAAAGUGAAGAAGAAUGAAGACAGCAAAGCAAGCCGGUCAAACUA	0.531
AAAGUGGAGAUCCUGCAGCACGUUAUCGACUACAUCCUGGACCUGCAGCUGGCGCUGGAGACUCACCCUGCUUUGCUGAGACAGCCGCCACCGCCCGCGCCACCUCUCCACCCGGCCGGG	0.2
CUUUAAAACUUUGGUUGUCAACUUUCAUUAACCUUAAAUACACUGAAUGGAAUCAACACAAGUGAGACAUCUCAGACCUUUCCUGAUGCUACGGCUUUUGUUUUUCCAGUGGCCAAAAUA	0.213
UGUGGCGGCUUGGGCGGGACGCACGCGGUGCAGUUCAAGAUGGCGGAUGCAGAAGUAAUUACAUUCCCAAAGAAGCAUAAGAAGAAAAAAGACCGGAAGCCAUUACAAGAAGAUGAUGUU	0.588
GAAGAAGAUGAACACUUCGAUGACACAGUGGUUUGUCUUGAUACUUAUAAUUGUGAUCUACAUUUUAAAAUAUCAAGAGAUCGUCUCAGUGCUUCUUCCCUUACAAUGGAGAGUUUUGCU	0.307
CCCAAUGGUGUCAUCCCUUUCCAUGGGUUUUCCAUGUAUGUUGCACCAUUGUGUUUUCUGUAUCAUGAACCUUACAAAUUGUAUCAGAUAUUCCGUGAGAUGUACGUCCGCUUUUUCUUC	0.132
AUGGCUUGGAUGAUAUUAAGGACCGUUCGACACUUGGAGAGAAAUUGGGAGGCAAUGUAGUAGUUUCACUUGAAGGAAAACCAUUAUAAAAUGACAGUCAAGUGCCAUCUGGAUCUUAAG	0.818
CAAGGAGCUCGAAGGAACAGUUCCUAGACGCAUCAGUUCCUACGUGAAAAGGAUUGUUUUGGUUUUUGUUUUGUUUUUUUGUUUGUUUUUUCACGUGAGAGCAAGACGGAGGAAAUAAUU	0.171
AUUGCUGUCACCACCAUUGACAAUAUUGGUGCUGGUGUGAUCCAGCCAGGCCGAGGCUUUGUCCUUUAUCCAGUUAAGUACAAGGCCAUUGUUUUCCGGCCAUUUAAAGGGGAGGUCGUG	0.134

Sample 5 — Molecule: B1 (RNF182 RING domain); method: yeast two-hybrid; medium: yeast; notes: mostly zero background; reference: not given; direction: higher = stronger interaction
B1: RNF182 RING domain (UniProt Q8N6D2); chain AESQASDELECKICYNRYNLKQRKPKVLECCHRVCAKCLYKIIDFGDSPQGVIVCPFCRFETCLPDDEV
target	lacZ reporter activity
UBE2O UBC core domain (UniProt Q9C0C9)	0
UBE2C UBC core domain (UniProt O00762)	0
UBE2T UBC core domain (UniProt Q9NPD8)	0
UBE2B UBC core domain (UniProt P63146)	0
UBE2L3 UBC core domain (UniProt P68036)	0
UBE2Z UBC core domain (UniProt Q9H832)	0
UBE2J2 UBC core domain (UniProt Q8N2K1)	0
UBE2M UBC core domain (UniProt P61081)	0

For quick reference, copied from above (sample 3):
Sequence	6-mer enrichment (R)
CCAAUG	0.734
UGUAUU	0.684
CUAAUG	0.676
GAACAG	1.03
